Published values from different studies.
Lines come from different studies, so protocols differ. Values joined by “and” are separate records of one study, mostly repeats; a detail may differ. ± marks the error that the study gave. Values after ≈ are worked out from the molar mass of the structure shown.

| Compound | tested on | test | test system | setting | how to read | measurement | result |
| --- | --- | --- | --- | --- | --- | --- | --- |
| CN1CCCNC(=O)c2cccc(c2)C(=O)NCCCN(C)CCCNc2cccc3c2C(=O)c2cccc(c2C3=O)NCCC1 | – | – | mouse xenograft model | dose not given, day 2 | – | body weight | 26 g and 29 g |
| O=C1CCC(N2Cc3cc(N4CCN(CC5CCN(c6ccc(C7c8ccc(OC9OC(C(=O)O)C(O)C(O)C9O)cc8CCC7c7ccccc7)cc6)CC5)CC4)ccc3C2=O)C(=O)N1 (stereo not shown) | – | – | Sprague-Dawley rat, male, bile duct-cannulated, bile | 0 to 72 h | reference: dose | biliary excretion | 0.62% |
| COc1ccc(Cn2c(=O)n(O)c(=O)c3ccccc32)cc1 | – | shake flask | aqueous buffer | pH 7.4 | – | logD | 1.5 |
| COc1ccc(C(N)=O)cn1 | – | – | Han Wistar rats, male, plasma | oral, 30 mg/kg, 3.00 h | – | concentration at time | 15.7 µM |
| CCCC[C@H](OC(C)=O)c1ccccc1C(=O)O | – | – | beagle dogs, both sexes, whole blood | intravenous, 5 mg/kg single dose, 1 min | – | blood concentration | 16200 ± 3470 ng/mL |
| O=C(Nc1cnccc1-c1ccc([18F])nc1)c1ccnc(NC(=O)C2CC2)c1 | – | – | FVB/NJ mouse, both sexes, brain | intravenous, 50 min, with: tariquidar 15 mg/kg iv | – | SUV | 0.142 |
| Cc1cc(-c2ccc(C(=O)[C@@H]3CCCC[C@H]3C(=O)Nc3cnn4c3C(=O)NCC4)cc2)[nH]n1 | – | – | human, urine | oral, 200 mg, 0-24 h | reference: dose | cumulative radioactivity recovery | 4.59% and 5.77% and 6.15% and 5.16% and 5.93% |
| CCCCN1C(=O)c2cccc3c(NCCN4CCOCC4)ccc(c23)C1=O | – | – | toluene | – | – | fluorescence lifetime | 7.9 ns |
| Br.CCCCCCn1c2c(c(=N)c3c1CCC3)CCC2 | Trypanosoma cruzi | reporter mRNA translation, inhibitor, item: capped polyadenylated Renilla luciferase mRNA | cell-free extract | concentration not given | reference: positive over negative control | translation activity | 95.8% and 88.2% and 91.7% and 102% |
| CN1CCC[C@]1(C)/C=C/S(=O)(=O)NC(=O)Nc1c2c(cc3c1CCC3)CC=C2 | – | – | human, plasma | oral, 50 mg twice daily of parent drug, day 14, metabolite of dosed drug | – | Cmax at second steady-state dose | 22500 ng/mL |
| CN([O-])C(=O)CN1CCNCCN(CC(=O)N(C)[O-])CC1.[89Zr+4] | – | – | mouse, spleen | intravenous, 24 h | – | tracer uptake | 0.06 %ID/g |
| CN(C)c1ccc(CNCCC2CCOC(C)(C)C2)cc1.Cl (stereo not shown) | Trypanosoma cruzi | reporter mRNA translation, inhibitor, item: Renilla luciferase mRNA | cell-free extract | concentration not given, test 2 | reference: positive over negative control | translation activity | 86.6% and 102% |
| CCn1nc(Cl)c2c1-c1cnc(N)c(c1)O[C@H](C)c1cc(F)ccc1-c1nn(C)cc1C2 | – | – | Balb/c nude mouse female, plasma | 0.06 mg/kg twice daily for 5 days, 12 h | – | free plasma concentration | 0.00013 µM |
| C=CC(=O)N1CCCC(n2c(=O)c3ncccc3n(Cc3ccc(Oc4ccccc4)cc3)c2=O)C1 (stereo not shown) | – | metabolic stability | male CD-1 mouse, hepatocytes | 1 µM, 1 h | – | compound remaining | 0.9% |
| CC(C)C[C@@H]1NC(=O)[C@H](CCCCN)NC(=O)CNC(=O)[C@H]2CCCN2C(=O)[C@H](CCCCN)NC(=O)[C@H](CC(C)C)NC(=O)[C@H](CCCCN)NC(=O)[C@H](CC(C)C)NC(=O)[C@H](CCCCN)NC(=O)C(N)CCC=CCCC(C(N)=O)NC(=O)[C@H](CCCCN)NC(=O)[C@H](CC(C)C)NC(=O)[C@H](CCCCN)NC1=O (stereo partly shown) | – | RP-HPLC C18 | – | hydrophobicity | – | retention time | 16.3 min |
| C[C@@H](C(=O)O)c1ccc(-c2ccccc2)c(F)c1 | – | HPLC | sample solution | concentration not given, 12 h, room temperature, solution stability | – | peak area change | ≤ 2% |
| COc1cc(N2CCN(C(=O)C3CCCN3)CC2)ccc1Nc1ncc(Cl)c(Nc2ccccc2P(C)(C)=O)n1 (stereo not shown) | – | – | nude mice, NCI-H3122 xenograft | oral, dose not given, day 7 | – | body weight | 23.3 g and 22.4 g and 22.5 g and 24.5 g |
| C=C(NC(=O)c1csc(-c2nc3c(cc2O)-c2nc(cs2)C(=O)NC(C(C)O)C(=O)NC(=C(C)OC)c2nc(cs2)C(=O)NC2c4nc(cs4)C(=O)NC(COC(=O)c4c5c6c(cccc6n4O)COC(=O)C(OC4CC(C)(O)C(N(C)C)C(C)O4)C2OC5)c2nc-3cs2)n1)C(N)=O (stereo not shown) | – | – | Sprague-Dawley rat, both sexes, plasma | intravenous infusion, 6 mg/kg single dose | – | MRT(0-last) | 1.32 h |
| CN1CCC[C@]1(C)/C=C/S(=O)(=O)NC(=O)Nc1c2c(cc3c1C(O)CC3)CCC2 (stereo partly shown) | – | – | human, plasma | oral, 100 mg twice daily of parent drug, day 14, metabolite of dosed drug | – | Cmax at first steady-state dose | 23600 ng/mL |

| Compound | tested on | test | test system | setting | how to read | measurement | result |
| --- | --- | --- | --- | --- | --- | --- | --- |
| O=S(=O)(NCc1ccncc1)c1ccc(C2CCCCC2)cc1 | – | – | CK mouse | 0.3 mg/kg | reference: vehicle | body weight change | 11 ± 7 g |
| COc1ccc2c(c1)CCn1c[n+]3c(c1-2)-c1ccc(OC)cc1CC3 | – | – | female NSG mice, blood | 6 mg/kg, day 7, 5 days per week | – | Basophils | 2.57 ± 3.02% |
| C=CC(=O)Nc1cc(Nc2nccc(-c3cn(C4CC4)c4ccccc34)n2)c(OC)cc1N(C)CCNC | – | – | rat Sprague-Dawley | with: nicardipine | reference: without nicardipine | pharmacokinetic parameters | no effect |
| COc1cccc(OC)c1-c1cc(C(=O)NC2(C(=O)O)C3CC4CC(C3)CC2C4)nn1-c1ccc(C(=O)N(C)CCOCCOCCN(C)C(=O)[C@H](CCCCNC(=O)[C@H](CC(C)C)NC(=O)C2OC2C(=O)O)NC(=O)CN2CCN(CC(=O)[O-])CCN(CC(=O)[O-])CCN(CC(=O)[O-])CC2)cc1C(C)C.[177Lu+3] (mixture of isomers) | – | – | mouse, HT-29 xenograft, liver | 168 h post injection | – | tissue uptake | 0.33 %ID/g |
| C=CC(=O)Nc1cc(Nc2nccc(-c3c[nH]c4ccccc34)n2)c(OC)cc1N(C)CCN(C)C | – | storage stability | human plasma | 30 d, -80 °C, MQC level | – | recovery | 98.7% |
| O=C(NS(=O)(=O)c1cccs1)c1cc2ccccc2n1Cc1ccc(Br)c2ccccc12 | – | – | KM mouse, chronic hyperuricaemia model | dose not given, day 21 | – | body weight | 36.6 g and 38.2 g and 32.6 g and 34.6 g and 35.6 g |
| O=c1c2ccccc2[se]n1CCCCCCn1[se]c2ccccc2c1=O | – | shake-flask, RP-HPLC | DMSO | 24 h, 25 °C | – | solubility | 33.8 ± 0.7 mg/mL (≈ 70.7 mM) |
| C=CC(=O)Nc1cc(Nc2nccc(-c3cn(C)c4ccccc34)n2)c(OC)cc1N(C)CCNC | – | storage stability | human dried blood spots | 24 h, on ice, LLOQ level | – | recovery | 85.2% |
| OC1(C(F)(F)F)CCN(c2nc(Nc3ccnc(C(F)(F)F)c3)nc(-c3cccc(C(F)(F)F)n3)n2)C1 (stereo not shown) | – | – | monkey, blood | oral, 1 mg/kg | – | AUC(0-t) | 5630 ± 567 ng·h/mL |
| CC(C)(O)c1ncc([S@](N)(=O)=NC(=O)Nc2c3c(cc4c2CCC4)CCC3)s1 | – | item: investigations | healthy human | oral, 100 mg, all formulations pooled | – | subjects with TEAEs | 17% |
| CNc1cc(N)c(C(N)=O)cn1 | – | – | Han Wistar rats, male, plasma | oral, 30 mg/kg, 0.25 h | – | concentration at time | 31.4 µM |
| CCCCN1C(=O)c2cccc3c(NCCCCCCN4CCOCC4)ccc(c23)C1=O | – | – | DMF | – | – | fluorescence lifetime | 10.3 ns |
| CC[C@H](C)[C@H](NC(=O)CNC(=O)[C@H](C)NC(=O)[C@H](CC(=O)O)NC(=O)[C@H](CO)NC(=O)[C@H](C)NC(=O)[C@H](CC(C)C)NC(=O)[C@H](CCCCN)NC(=O)[C@H](CCCCN)NC(=O)[C@H](CCSC)NC(=O)[C@H](CC(N)=O)NC(=O)[C@H](Cc1ccccc1)NC(=O)[C@H](CC(=O)O)NC(=O)[C@@H](N)CCSC)C(=O)N[C@@H](Cc1c[nH]c2ccccc12)C(=O)N[C@@H](Cc1ccccc1)C(=O)N[C@H](C(=O)N[C@@H](CCCNC(=N)N)C(=O)N[C@@H](C)C(=O)N[C@H](C(=O)N[C@@H](CCC(N)=O)C(=O)N[C@@H](Cc1ccccc1)C(=O)N[C@H](C(=O)N[C@@H](CCC(=O)O)C(=O)N[C@@H](CCC(=O)O)C(=O)N[C@@H](CCCCN)C(=O)N[C@@H](Cc1ccccc1)C(=O)NCC(=O)N[C@@H](CCC(N)=O)C(=O)N[C@@H](C)C(N)=O)[C@@H](C)O)C(C)C)[C@@H](C)O | – | circular dichroism titration | 100% DOPS liposomes | 50 µM, pH 7.4, 20 °C | – | ΔG of binding | -6.6 kcal/mol |
| CC(C(=O)O)n1nc(Cn2cc3cc(OCC[18F])c(Cl)cc3n2)c2ccccc2c1=O (racemic) | – | – | rat, kidney | 5 min | – | tracer uptake | 3.93 %ID/g |
| Cc1ccnc(-c2cc(C(=O)O)ccn2)c1.F[P-](F)(F)(F)(F)F.F[P-](F)(F)(F)(F)F.[Ru+2].c1ccc(-c2ccccn2)nc1.c1ccc(-c2ccccn2)nc1 | – | RNO/histidine method | acetonitrile | with: irradiation 365 nm | reference: phenalenone | singlet oxygen yield | 51% |
| COCC1CN(C2CCN(c3cc(OC)c(Nc4ncc(Br)c(Nc5ccc6c(c5P(C)(C)=O)OCCO6)n4)cc3C)CC2)C1 | – | – | EGFR-mutant NSCLC patients, plasma | oral, 10 mg single dose, geometric mean | – | Cmax | 21.6 ng/mL |
| CO[C@@H](C[C@H]1C(C)=CC[C@@H]2[C@]3(C)C[C@H](O[C@@H]4O[C@@H](C)[C@H](O)[C@@H](O)[C@H]4O)[C@@H](O)C(C)(C)[C@H]3CC[C@]21C)[C@H](N)C(=O)O | – | – | Caco-2 | 5 µM, 1 h | – | efflux ratio | 1.2 |
| CC(C)(C)C(=O)Nc1ccc2[nH]c(CN3CCC(N(CCCN4CCOCC4)CC4OC(n5cnc6c(N)ncnc65)C(O)C4O)CC3)nc2c1 (stereo not shown) | – | – | male Sprague-Dawley rat, plasma | intravenous, 20 mg/kg, 30 min | – | concentration | 1310 ng/mL |

For quick reference, copied from above:
| Compound | tested on | test | test system | setting | how to read | measurement | result |
| --- | --- | --- | --- | --- | --- | --- | --- |
| Cc1ccnc(-c2cc(C(=O)O)ccn2)c1.F[P-](F)(F)(F)(F)F.F[P-](F)(F)(F)(F)F.[Ru+2].c1ccc(-c2ccccn2)nc1.c1ccc(-c2ccccn2)nc1 | – | RNO/histidine method | acetonitrile | with: irradiation 365 nm | reference: phenalenone | singlet oxygen yield | 51% |
| COc1ccc(Cn2c(=O)n(O)c(=O)c3ccccc32)cc1 | – | shake flask | aqueous buffer | pH 7.4 | – | logD | 1.5 |
